Experimental data gathered from unrelated publications.
Lines come from different studies, so protocols differ. ± gives the spread as reported.

SMILES | target or system | assay | system | conditions | scale | endpoint | result
CCOc1c([C@H](C)n2nc(C)c3c(N)ncnc32)cc(Cl)c(F)c1[C@@H]1CNC(=O)C1 | – | measured: QRS >100 to ≤110 ms | previously treated B-cell malignancy | oral, 20 mg once daily, baseline below thresholds | – | ECG observations | 4.4%
CC(=O)NCc1cc2c(cc1F)C(=O)N(C1CCC(=O)NC1=O)C2 (stereo not shown) | – | – | cynomolgus monkey, male | oral, 0.3 mg/kg parent drug, 2 h | – | plasma concentration | 0.28 ng/mL
COc1ccc2[nH]c([S+]([O-])Cc3ncc(C)c(OC)c3C)nc2c1 (stereo not shown) | – | – | healthy Chinese volunteers, plasma | oral, 20 mg, enteric-coated capsules, CYP2C19 poor metabolizers | – | Cmax | 1090 ± 1050 ng/mL
COc1cc(/C=C/C(=O)O)ccc1O | – | – | human plasma | mean | – | plasma concentration | 1380 nM
O=C(O)C[C@H](O)C[C@H](O)/C=C/c1c(C2CC2)nc2ccccc2c1-c1ccc(F)cc1 | COS-7 | – | – | 3 µM, 24 h, 0.1% DMSO, unit not given | relative to: vehicle control | necrotic cells | 0.48 ± 0.15
CC(C)c1nc(CN(C)C(=O)N[C@@H](CCN2CCOCC2)C(=O)N[C@H](CC[C@H](Cc2ccccc2)NC(=O)OCc2cncs2)Cc2ccccc2)cs1 | – | measured: Dizziness | human | oral, 150 mg | – | drug-related TEAE incidence | 0%
Cc1c(C(=O)Nc2ccc(N3C[C@@H](C)O[C@@H](C)C3)nc2)cccc1-c1ccc(OC(F)(F)F)cc1 | – | PK model | mouse | oral, 40 mg/kg/day | – | tumour-to-plasma rate constant | 0.632 h⁻¹
CC(C)C[C@H](NC(=O)C[C@H](O)[C@H](CC(C)C)NC(=O)[C@H](Cc1c[nH]cn1)NC(=O)CNC(=O)[C@@H](NC(=O)[C@H](C)NC(=O)[C@H](Cc1c[nH]c2ccccc12)NC(=O)[C@H](CCC(N)=O)NC(=O)[C@@H](Cc1ccccc1)NC(=O)COCCOCCNC(=O)CCC(C(=O)O)N1CCN(CC(=O)O)CCN(CC(=O)O)CCN(CC(=O)O)CC1)C(C)C)C(N)=O (stereo partly shown) [lutetium-177 labelled] | – | – | female BALB/c nu/nu mice, bladder | intravenous, 100 pmol, 24 h, added: PA 300 µg | – | tissue uptake | 0.3 ± 0.1 %ID/g
O=C(Nc1nc2cccc(-c3ccc(CN4CCS(=O)(=O)CC4)cc3)n2n1)C1CC1 | – | measured: metabolism and nutrition disorders | human rheumatoid arthritis patients | oral, 30 mg once daily, 4 weeks, regardless of relatedness | – | treatment-emergent adverse events | 0%
Cc1nc(-c2cnc(NC(C)C)n(C)c2=O)ccc1Oc1ccnc(-c2cnn(C)c2)c1 | – | – | Beagle dog, male, plasma | oral, 3 mg/kg, crossover study, mean | – | oral bioavailability | 33.3%
CNC(=O)c1cccc(-c2ccc([C@@H](O)[C@H]3O[C@H](CO)[C@@H](O)[C@H](O)[C@@H]3O)c(C)c2)c1 | – | – | male Sprague-Dawley rat, plasma | oral, 10 mg/kg, group mean | – | AUC(0-all) | 93.7 ng·h/mL
Cc1ccc(Sc2ccccc2N2CCNCC2)c(C)c1 | – | measured: postural dizziness | healthy adult men | oral, 10 mg daily, 12 days | – | participants with TEAE | 0%
Cc1nc2ccc(OCc3ccc(C(F)(F)F)cc3)cc2[nH]1 | – | – | male Balb/c mice, brain | oral, 10 mg/kg, 72 h | relative to: tissue over plasma | tissue/plasma ratio | 5.3 ± 2.6
O=C(Nc1cnc2ccccc2c1)c1cc2[nH]ccc2cc1Cl | COS-7 | – | – | 10 µM, 24 h, 0.1% DMSO, unit not given | relative to: vehicle control | necrotic cells | 1.67 ± 0.3
Cc1c2oc3c(C)ccc(C(=O)N[C@@H]4C(=O)N[C@H](C(C)C)C(=O)N5CCC[C@H]5C(=O)N(C)CC(=O)N(C)[C@@H](C(C)C)C(=O)O[C@@H]4C)c3nc-2c(C(=O)N[C@@H]2C(=O)N[C@H](C(C)C)C(=O)N3CCC[C@H]3C(=O)N(C)CC(=O)N(C)[C@@H](C(C)C)C(=O)O[C@@H]2C)c(N)c1=O | – | LC-MS | children with cancer, plasma | dose not given, 26 h | – | minimum plasma concentration | 0.7 µg/L
COc1cc(C(=O)NC2CCN(C)CC2)c(F)cc1Nc1ncc(C(F)(F)F)c(Oc2cccc3c2C(=O)N(C)C3)n1 | – | – | human patients, plasma | oral, 25 mg single dose, geometric mean | – | dose-normalised Cmax | 8.01 nmol/L per mg
O=C(O)CCC(=O)O.[2H]C([2H])([2H])Oc1cc(C)c2[nH]ccc2c1CN1CC[C@@H](C2CC2)C[C@H]1c1ccc(C(=O)O)cc1 | – | multiple ascending dose | healthy Chinese subjects | 125 mg twice daily | – | subjects with elevated LDL TEAE | 0%
COc1c(O)c(C)cc2c1C(=O)c1c(ccc(O)c1O)C2=O | HepaRG co-cultured with HK-2 | MTT | – | 266.67 µM, 48 h | relative to: untreated control | cell viability | 33.5 ± 3.05%
C[C@@H](O)[C@H]1C(=O)N2C(C(=O)O)=C(SCCN=CN)C[C@H]12 | – | starch gel membrane permeability | Gram-negative envelope surrogate | 200 µM, 10 min, pH 7.4 | – | amount permeated | 0.87 nmol
O=C(O)[C@H]1O[C@@H](Oc2cc(O)cc(/C=C\c3ccc(O)cc3)c2)[C@H](O)[C@@H](O)[C@@H]1O | – | – | human, cerebrospinal fluid | – | – | samples above LOQ | 0%
CNC(=O)c1ccc(-c2cnc3ncc(Cc4ccc5ncccc5c4)n3n2)cc1F | – | measured: Ascites | other cancer patients | oral, 600 mg twice daily, expansion cohort, grade 3-4 | – | patients with adverse event | 0%
C[C@H](NC(=O)/C(C#N)=C/c1cccc(Br)n1)c1ccccc1 | – | LC-MS/MS | patients, plasma | oral, 1 mg/kg, cycle 1 day 1 | – | AUC(all) | 53 ng·h/mL
Cc1cc(O)c2c(c1)C(=O)c1cc(O)cc(O)c1C2=O | HepaRG co-cultured with HK-2 | MTT | – | 266.67 µM, 48 h | relative to: untreated control | cell viability | 20.2 ± 2.33%
CCc1cc(C(=O)NC)c2nccc(N3CCc4c(cc(Cn5ccnc5)cc4-c4cn(C)nc4C(F)(F)F)C3=O)c2c1 | – | – | Sprague Dawley rat | oral, 100 mg/kg twice daily, 7 days | – | lung weight | 1.15 ± 0.087 g
NC(=O)N1c2ccccc2C=Cc2ccccc21 | – | – | human, serum | concentration not given | – | GGT | ≤ 133 U/L

A few entries again:
SMILES | target or system | assay | system | conditions | scale | endpoint | result
CC(=O)NCc1cc2c(cc1F)C(=O)N(C1CCC(=O)NC1=O)C2 (stereo not shown) | – | – | cynomolgus monkey, male | oral, 0.3 mg/kg parent drug, 2 h | – | plasma concentration | 0.28 ng/mL
COc1ccc2[nH]c([S+]([O-])Cc3ncc(C)c(OC)c3C)nc2c1 (stereo not shown) | – | – | healthy Chinese volunteers, plasma | oral, 20 mg, enteric-coated capsules, CYP2C19 poor metabolizers | – | Cmax | 1090 ± 1050 ng/mL
